# Measured values pooled from the literature.
# Protocols differ between the studies behind these lines. “And” joins repeats or separate records; there may be more than shown. ± gives the spread as reported.
Compound,test,system,setting,how to read,quantity,value
CCCC[C@H]1C(=O)N(C)[C@@H](CCCC)C(=O)N[C@@H](CCCNC(=O)CN2CCN(CC(=O)O)CCN(CC(=O)O)CCN(CC(=O)O)CC2)C(=O)N[C@H](C(=O)NCC(N)=O)CSCC(=O)N[C@@H](Cc2ccc(O)cc2)C(=O)N(C)[C@@H](C)C(=O)N[C@@H](CC(N)=O)C(=O)N2CCC[C@H]2C(=O)N[C@@H](Cc2c[nH]cn2)C(=O)N[C@@H](CC(C)C)C(=O)N(C)CC(=O)N[C@@H](Cc2c[nH]c3ccccc23)C(=O)N[C@@H](CO)C(=O)N[C@@H](Cc2c[nH]c3ccccc23)C(=O)N1C [gallium-68 labelled],static PET,"NOD/SCID mice, CHO-hPD-L1 xenograft, CHO-hPD-L1 tumour","intravenous, 1 h post injection, before PBS treatment",,tumour uptake,5.46 ± 1.07 %ID/g
CC(C)COC1O[C@@H]2O[C@@]3(C)CC[C@H]4[C@H](C)CCC([C@H]1C)[C@@]24OO3 (stereo partly drawn),,Tg(fli1:EGFP) zebrafish embryos,"25 µg/mL, up to 48 hpf",,dead embryos,0 count
CN(C)C(CNC(=O)Nc1cc(C(F)(F)F)ccc1N1CCOCC1)c1ccncc1 (stereo not drawn),,"mouse, serum","intraperitoneal, 240 mg/kg single dose",,serum indirect bilirubin,0.2 mg/dL
O=C(CN1CCN(c2cc3c(cc2F)c(=O)c(C(=O)O)cn3C2CC2)CC1)Nc1ccc(Cl)cc1,,"mouse, plasma","intravenous, 3.75 mg/kg",,MRT,9.33 h
CC(C)(CN)CNC(=O)O[C@H]1CCCC2(C1)OOC1(O2)C2CC3CC(C2)CC1C3 (stereo partly drawn),,human liver microsomes,,,CLint,21.4 µL/min/mg
CC(C)(C)c1ccc(COc2cc3c(=O)c(C(=O)NCCNCCO)cn(Cc4ccccc4)c3cc2Cl)cc1,metabolic stability,"human, liver microsomes",1 µM,,microsomal CLint,< 11.6 µL/min/mg
CSCC[C@@H]1NC(=O)[C@@H]2CSSC[C@H](NC(=O)[C@H](CO)NC(=O)[C@H](C)N)C(=O)N[C@@H](CCCNC(=N)N)C(=O)N[C@@H]([C@@H](C)O)C(=O)N3CCC[C@H]3C(=O)N[C@@H](CCCCN)C(=O)N[C@@H](CC(=O)O)C(=O)N[C@H]3CSSC[C@H](NC(=O)[C@H](CCCCN)NC(=O)[C@H](CCCNC(=N)N)NC(=O)[C@H](CC(N)=O)NC1=O)C(=O)N[C@@H](CCCCN)C(=O)N[C@H]1CSSC[C@H](NC(=O)[C@@H]4CCCN4C(=O)[C@H](CC(=O)O)NC(=O)[C@H](C)NC3=O)C(=O)N[C@@H](C)C(=O)N[C@@H](CCCCN)C(=O)N[C@@H](CCC(=O)O)C(=O)N[C@@H]([C@@H](C)O)C(=O)NCC(=O)N[C@@H](CSSC[C@@H](C(N)=O)NC(=O)[C@H](CCCNC(=N)N)NC(=O)[C@H](CC(N)=O)NC1=O)C(=O)N1CCC[C@H]1C(=O)N[C@@H](Cc1ccc(O)cc1)C(=O)NCC(=O)N[C@@H](CCCCN)C(=O)N2,,"DA rat pristane-induced arthritis, serum","subcutaneous, 0.1 mg/kg once weekly, 21 days",,Chloride,109 mmol/L
CC(C)C[C@H](NC(=O)[C@H](CCCCN)NC(=O)[C@H](CCC(=O)O)NC(=O)[C@H](C)NC(=O)[C@@H](NC(=O)[C@H](CCCCN)NC(=O)[C@H](CC(=O)O)NC(=O)[C@H](Cc1ccc(O)cc1)NC(=O)[C@H](Cc1ccccc1)NC(=O)[C@H](C)NC(=O)[C@H](CCCCN)NC(=O)[C@H](CC(C)C)NC(=O)[C@H](Cc1c[nH]c2ccccc12)NC(=O)[C@@H](N)CC(=O)O)C(C)C)C(=O)N[C@@H](CCCCN)C(=O)N[C@@H](CCC(=O)O)C(=O)N[C@@H](C)C(=O)N[C@@H](Cc1ccccc1)C(=O)N1CCC[C@H]1C(=O)N[C@@H](CC(=O)O)C(=O)N[C@@H](Cc1c[nH]c2ccccc12)C(=O)N[C@@H](C)C(=O)N[C@@H](CCCCN)C(=O)N[C@@H](C)C(=O)N[C@@H](C)C(=O)N[C@@H](Cc1ccc(O)cc1)C(=O)N[C@@H](CC(=O)O)C(=O)N[C@@H](CCCCN)C(=O)N[C@@H](C)C(=O)N[C@@H](C)C(=O)N[C@@H](CCC(=O)O)C(=O)N[C@@H](CCCCN)C(=O)N[C@@H](C)C(=O)N[C@@H](CCCCN)C(=O)N[C@@H](CCC(=O)O)C(=O)N[C@@H](C)C(=O)N[C@@H](C)C(=O)O,LC-MS/MS,"cynomolgus monkey, male, plasma","IV infusion, 75 mg/kg/dose, day 1, 30 min infusion",,Vss,0.053 L/kg
CCCCCCCCCCCCC(=O)O.O=C1CCCC2C3CCCN4CCCC(CN12)C34 (stereo not drawn),electrical conductivity,water,"298.15 K, critical micelle concentration",,entropic term −TΔS of micellization,-6.32 kcal/mol
CSCC[C@H](NC(=O)CNC(=O)[C@H](CC(=O)O)NC(=O)[C@@H](NC(=O)[C@@H](NC(=O)[C@@H](NC(=O)CNC(=O)[C@H](CCC(N)=O)NC(=O)[C@H](CCSC)NC(=O)[C@H](CC(=O)O)NC(=O)[C@H](C)NC(=O)[C@H](C)NC(=O)[C@@H](NC(=O)[C@H](CO)NC(=O)[C@@H](N)CC(C)C)[C@@H](C)O)C(C)C)C(C)C)[C@@H](C)O)C(=O)N[C@@H](C)C(=O)N[C@@H](CO)C(=O)NCC(=O)N[C@@H](CC(C)C)C(=O)N[C@@H](CC(=O)O)C(=O)N[C@@H](CCCCN)C(=O)N[C@@H](CC(=O)O)C(=O)N[C@@H](Cc1ccc(O)cc1)C(=O)N[C@@H](CC(C)C)C(=O)N[C@@H](CCCCN)C(=O)N1CCC[C@H]1C(=O)N[C@@H](CC(=O)O)C(=O)N[C@@H](CC(=O)O)C(=O)O,,"human, serum","intravenous, 3.33 mg/kg, patients, infusion",,clearance,19.6 mL/min/kg
Cc1ccc(/C=C/C(=O)O)cc1-c1cc2c(cc1C)C(C)(C)CCC2(C)C,,"Sprague-Dawley rat, male, plasma","oral, 100 mg/kg, 12 h, sesame oil vehicle",,HDL level,39 ± 5 mg/dL
CC(=O)[O-].CN1CCCN2CCN(CCCN(Cc3ccccc3)CC2)CC1.F[P-](F)(F)(F)(F)F.[Co+2],"cyclic voltammetry, refers to: first Co2+/Co3+ couple",acetonitrile,,,peak separation,177 mV
CC[C@H](C)C(=O)N1CCC(NC(=O)Nc2ccc(OC(F)(F)F)c(F)c2)CC1,,"healthy volunteers, both sexes","oral, 8 mg single dose, fed state",,participants with any Treatment‐Related TEAE,0%
CC(C)C[C@@H](NC(=O)[C@@H](CCCCN)NC(=O)CNC(=O)CNC(=O)[C@@H]1CSSC[C@H](N)C(=O)NCC(=O)N[C@@H](CCCNC(=N)N)C(=O)N[C@@H](CCCNC(=N)N)C(=O)N[C@@H](C)C(=O)NCC(=O)NCC(=O)N[C@@H](CO)C(=O)N1)C(=O)N[C@H](C)C(=O)N[C@H](CCCCN)C(=O)N[C@H](CC(C)C)C(=O)N[C@H](C)C(=O)N[C@H](CCCCN)C(=O)N[C@H](CCCCN)C(=O)N[C@H](CC(C)C)C(=O)N[C@H](C)C(=O)N[C@H](CCCCN)C(=O)N[C@H](CC(C)C)C(=O)N[C@H](C)C(=O)N[C@H](CCCCN)C(=O)O,,"cynomolgus monkey, plasma","intravenous, 3 mg/kg, infusion",,Vd,2.9 L
CCCCCCCC(=O)OC[C@H](NC(=O)[C@H](CO)NC(=O)CN)C(=O)N[C@@H](Cc1ccccc1)C(=O)N[C@@H](CC(C)C)C(=O)N[C@@H](CO)C(=O)N1CCC[C@H]1C(=O)N[C@@H](CCC(=O)O)C(=O)N[C@@H](Cc1cnc[nH]1)C(=O)N[C@@H](CCC(N)=O)C(=O)N[C@@H](CCCNC(=N)N)C(=O)N[C@H](C(=O)N[C@@H](CCC(N)=O)C(=O)N[C@@H](CCC(N)=O)C(=O)N[C@@H](CCCNC(=N)N)C(=O)N[C@@H](CCCCN)C(=O)N[C@@H](CCC(=O)O)C(=O)N[C@@H](CO)C(=O)N[C@@H](CCCCN)C(=O)N[C@@H](CCCCN)C(=O)N1CCC[C@H]1C(=O)N1CCC[C@H]1C(=O)N[C@@H](C)C(=O)N[C@@H](CCCCN)C(=O)N[C@@H](CC(C)C)C(=O)N[C@@H](CCC(N)=O)C(=O)N1CCC[C@H]1C(=O)N[C@@H](CCCNC(=N)N)C(=O)O)C(C)C,ELISA,"healthy humans, plasma","continuous intravenous infusion, 1 µg/kg/h, 65 min",,Cmax,3.87 ± 3.46 ng/mL
CC(C)[C@@H]1NC(=O)[C@H](Cc2ccccc2)NC(=O)[C@H](Cc2ccc(O)cc2)NC(=O)CCSSC[C@@H](C(=O)N2CCC[C@H]2C(=O)N[C@H](CCCNC(=N)N)C(=O)NCC(N)=O)NC(=O)[C@H](CCC(N)=O)NC1=O,,Wistar rat,"intravenous, 1 µg/kg single dose, 72 h",,body weight,225 ± 16.8 g
O=C(O)CC[C@H](NC(=O)O[C@@H](CCCCNC(=O)c1ccc([18F])cc1)C(=O)O)C(=O)O,,"mouse, PC-3 PIP/flu xenografts, muscle",60 min,,tissue uptake,0.27 ± 0.12 %ID/g
C#Cc1c(F)ccc2cc(O)cc(-c3ncc4c(N5CC6CCC(C5)N6C(=O)CC(C)CC(=O)OCC)nc(OC[C@@]56CCCN5C[C@H](F)C6)nc4c3F)c12 (stereo partly drawn),,mouse liver microsomes,"60 min, together with: NADPH",,parent drug release,not detected
[3H]c1sc(C)nc1C=C(C)C1CC2C(CCCC(C)C(O)C(C)C(=O)C(C)(C)C(O)CC(=O)O1)N2CCO (stereo not drawn),whole-body autoradiography,"CD2F1 mice, intestine contents","intravenous, 2.2 nmol/kg, 48 h",,radioactivity in tissue,10.2 ± 8.4 µg-eq/g
CC(C)[C@H](NC(=O)CNC(=O)[C@H](CCC(N)=O)NC(=O)[C@H](C)N)C(=O)O,,human,"single dose, 10 mg/kg, unlikely related or unrelated",,unrelated adverse events,33.3%
[CH3][Ti+2][O]C(=O)c1ccc([S][Au][PH](c2ccccc2)(c2ccccc2)c2ccccc2)cc1.c1cc[cH-]c1.c1cc[cH-]c1,,C57BL/6 female mice,"sc, 5 consecutive days",,lethal dose,6 mg/kg/day
COc1cc(NC(=O)C(=O)c2c(C)n(Cc3ccc(Cl)cc3)c3ccc(C)cc23)ccn1,,"cynomolgus monkey, male, plasma","oral, 10 mg/kg",,t1/2,11.2 h and 14.4 h and 16.6 h and 27.1 h and 16.5 h and 18.3 h
COc1ccc(F)cc1S(=O)(=O)Nc1cnc2c(c1)C(=O)NCCO2,,"male cynomolgus monkey, plasma","intravenous, 0.3 mg/kg, single dose",,clearance,5.06 mL/min/kg
Nc1ccc(-c2ccccc2)cc1OC(=O)NC1CCCCC1,,rat plasma,,,log hydrolysis rate constant,-2.11
CC[C@H](C)[C@@H]1NC(=O)[C@H](CCCCN)NC(=O)[C@H](CCCCN)NC(=O)[C@H](Cc2ccc(O)cc2)NC(=O)[C@H](CC(C)C)NC(=O)[C@@H]2CCCN2C(=O)[C@H](C)NC(=O)CNC(=O)CNC(=O)[C@H](CO)NC(=O)CNC(=O)CNC(=O)[C@H](CO)NC(=O)[C@H](CCCCN)NC(=O)[C@H](CC(C)C)NC(=O)[C@H](CC(C)C)NC(=O)[C@H](CCCCN)NC(=O)[C@H](CCCCN)NC(=O)[C@H]([C@@H](C)CC)NC(=O)[C@H]([C@@H](C)CC)NC(=O)[C@H](CCCCN)NC(=O)[C@H](CCCCN)NC(=O)[C@H](Cc2ccc(O)cc2)NC(=O)[C@H](CC(C)C)NC(=O)[C@@H]2CCCN2C(=O)[C@H](C)NC(=O)CNC(=O)CNC(=O)[C@H](CO)NC(=O)CNC(=O)CNC(=O)[C@H](CO)NC(=O)[C@H](CCC(=O)O)NC(=O)[C@H](CC(C)C)NC(=O)[C@H](CC(C)C)NC(=O)[C@H](CCCCN)NC(=O)[C@H](CCCCN)NC(=O)[C@H]([C@@H](C)CC)NC1=O,,25% human serum,"50 µM, 24 h",reference: 0 h control,remaining intact peptide,12.2 ± 1%
[2H]C([2H])([2H])C([2H])([2H])C([2H])([2H])OC(C(=O)OC1CCNCC1)(c1ccccc1)c1ccccc1,,"healthy Japanese male subjects, plasma","oral, 8 mg once daily, day 1, fed, mean",,Cmax,14.3 ng/mL
CC(COC(=O)c1ccccc1)OC(=O)C(N)C(C)C (mixture of isomers),,isotonic buffer,"pH 1.2, 37 °C",,half-life,> 30 h
COC(=O)C[C@](O)(CCCC(C)(C)OC(C)=O)C(=O)O[C@@H]1C(OC)=C[C@]23CCCN2CCc2cc4c(cc2[C@H]13)OCO4,,"CD1 mouse, liver","subcutaneous, 1 mg/kg, 2 h",,tissue concentration,112 ng/mL
CC[C@H](C)[C@H](NC(=O)[C@H](Cc1ccccc1)NC(=O)[C@@H]1CCCN1C(=O)[C@H](CCCCN)NC(=O)[C@H](CCCCN)NC(=O)[C@H](Cc1ccccc1)NC(=O)[C@H](Cc1ccccc1)NC(=O)[C@@H](C)NC(=O)[C@@H](N)Cc1ccc(O)cc1)C(=O)N[C@@H](CC(C)C)C(=O)O,,anesthetized rat,"intrathecal, 10 nmol/rat, 1 to 5 min",,maximum mean arterial pressure,97 ± 8 mmHg
O=c1cc(-c2ccccc2)oc2c(Br)c(O)c(O)c(O)c12,,"C57BL/6 mouse, plasma","po, 150 mg/kg",,AUC extrapolated percentage,5.6 ± 4.8%

# Some of these lines once more:
Compound,test,system,setting,how to read,quantity,value
CC(C)[C@H](NC(=O)CNC(=O)[C@H](CCC(N)=O)NC(=O)[C@H](C)N)C(=O)O,,human,"single dose, 10 mg/kg, unlikely related or unrelated",,unrelated adverse events,33.3%
CC[C@H](C)C(=O)N1CCC(NC(=O)Nc2ccc(OC(F)(F)F)c(F)c2)CC1,,"healthy volunteers, both sexes","oral, 8 mg single dose, fed state",,participants with any Treatment‐Related TEAE,0%
CC(C)COC1O[C@@H]2O[C@@]3(C)CC[C@H]4[C@H](C)CCC([C@H]1C)[C@@]24OO3 (stereo partly drawn),,Tg(fli1:EGFP) zebrafish embryos,"25 µg/mL, up to 48 hpf",,dead embryos,0 count
COc1ccc(F)cc1S(=O)(=O)Nc1cnc2c(c1)C(=O)NCCO2,,"male cynomolgus monkey, plasma","intravenous, 0.3 mg/kg, single dose",,clearance,5.06 mL/min/kg
Nc1ccc(-c2ccccc2)cc1OC(=O)NC1CCCCC1,,rat plasma,,,log hydrolysis rate constant,-2.11
